Results pooled from the literature.
Each line is one published result; not all experiments were run side by side.

COc1cccc(CNC(=O)C2CCN(Cc3cc4ccccc4n3Cc3ccccc3)CC2)c1OC
cytotoxicity efficacy (Vero-E6; CellTiter-Glo ATP; concentration not given, 72 h, second round 5-point; relative to: DMSO 0%, hyamine -100%, more negative, more toxic): -10.3%

C[C@@](Cc1ccc(O)c(O)c1)(NN)C(=O)O
AUC(0-t) (refers to: levodopa; healthy human volunteers, plasma; subcutaneous, dose not given, 24 h infusion, geometric mean, crossover): 2670 ng·h/mL

OCc1ncc2n1-c1ccc(Cl)cc1C(c1ccccc1F)=NC2
AUC(0-t) (human, plasma; oral, 7.5 mg of midazolam, day 19, arithmetic mean, no amenamevir): 44.1 ng·h/mL

CC(=O)c1c(C)c2cnc(Nc3ccc(C4CCN(CCS(C)(=O)=O)CC4)cn3)nc2n(C2CCCC2)c1=O
AUC(0-t) (human, dose-escalation trial, plasma; oral, 50 mg twice daily, day 1, single dose): 584 ng·h/mL

OCc1ncc2n1-c1ccc(Cl)cc1C(c1ccccc1F)=NC2
AUC(0-t) (human, plasma; oral, 2.5 mg): 9.5 ng·h/mL

OCc1ncc2n1-c1ccc(Cl)cc1C(c1ccccc1F)=NC2
AUC(0-t) (CYP3A4 probe metabolite; human, plasma; oral, 2 mg midazolam, day -7, probe cocktail alone, geometric mean): 135 ng·h/mL

OCc1ncc2n1-c1ccc(Cl)cc1C(c1ccccc1F)=NC2
AUC(0-t) (human; dose not given, metabolite of midazolam, together with: midazolam alone): 11.5 ng·h/mL

O=c1ccc2ncc(=O)n3c2n1C[C@H]3CN1CCC(NCc2cc3c(cn2)OCCC3)CC1
AUC(0-t) (healthy human volunteers, plasma; oral, dose not given, arithmetic mean, together with: itraconazole): 26800 ng·h/mL

C[C@H](NC(=O)c1c(C(F)F)nn(C)c1Oc1cccc(C(F)(F)F)c1)c1ccc(C(=O)O)cc1
AUC(0-t) (human, plasma; 750 mg, cycle 1 day 8, mean): 5930 ng·h/mL

COc1ccccc1-c1cccc(CN2CCCC(C(=O)NCCc3ccc(F)cc3)C2)c1 (centres unmarked)
cytotoxicity efficacy (Vero-E6; CellTiter-Glo ATP; concentration not given, 72 h, first round 5-point; relative to: DMSO 0%, hyamine -100%, more negative, more toxic): -12%

COc1ccc(C[C@@H]2NC(=O)[C@H]([C@@H](C)O)NC(=O)[C@@H]3[C@@H]4CCN3C(=O)[C@@H]3Cc5cn(c6ccc(F)cc56)CCCCCCN(Cc5ccc(cc5)CCNC(=O)[C@]5(C)CCCN5C2=O)C(=O)CCC(=O)N[C@@H](C)C(=O)N[C@H](CNC(=O)CCCCC[N+](C)(C)C)C(=O)N[C@@H](Cc2cccc(c2)CNC(=O)CO4)C(=O)N3)cc1
AUC(0-t) (human, plasma; oral, 100 mg, together with: sodium caprate 1800 mg): 0.855 µM·h

Repeated from above:
COc1ccc(C[C@@H]2NC(=O)[C@H]([C@@H](C)O)NC(=O)[C@@H]3[C@@H]4CCN3C(=O)[C@@H]3Cc5cn(c6ccc(F)cc56)CCCCCCN(Cc5ccc(cc5)CCNC(=O)[C@]5(C)CCCN5C2=O)C(=O)CCC(=O)N[C@@H](C)C(=O)N[C@H](CNC(=O)CCCCC[N+](C)(C)C)C(=O)N[C@@H](Cc2cccc(c2)CNC(=O)CO4)C(=O)N3)cc1
AUC(0-t) (human, plasma; oral, 100 mg, together with: sodium caprate 1800 mg): 0.855 µM·h
